Experimental data from different studies.
Protocols differ between the studies behind these lines.
Organism: Pseudomonas aeruginosa

`CC(=O)N[C@H](Cc1c(F)c(F)c(F)c(F)c1F)C(=O)N[C@@H](CCN)C(=O)N[C@H](C(=O)N[C@@H](CCN)C(=O)N[C@H]1CCNC(=O)[C@H]([C@@H](C)O)NC(=O)[C@H](CCN)NC(=O)[C@H](CCN)NC(=O)[C@H](CC(C)C)NC(=O)[C@@H](Cc2ccccc2)NC(=O)[C@H](CCN)NC1=O)[C@@H](C)O` gave an MIC of 0.25 to 0.5 µg/mL (broth microdilution; PAO1, colistin-susceptible).
For `CN[C@H](CC(C)C)C(=O)N[C@H]1C(=O)N[C@@H](CC(N)=O)C(=O)N[C@H]2C(=O)N[C@H]3C(=O)N[C@H](C(=O)N[C@H](C(=O)O)c4cc(O)cc(O)c4-c4cc3ccc4O)[C@H](O)c3ccc(c(Cl)c3)Oc3cc2cc(c3O[C@@H]2O[C@H](CO)[C@@H](O)[C@H](O)[C@H]2O[C@H]2C[C@](C)(NCc3ccc(OCc4cn(CC(=O)N[C@H](C(=O)N[C@@H](CCN)C(=O)N[C@H]5CCNC(=O)[C@H]([C@@H](C)O)NC(=O)[C@H](CCN)NC(=O)[C@H](CCN)NC(=O)[C@H](CC(C)C)NC(=O)[C@@H](CC(C)C)NC(=O)[C@H](CCN)NC5=O)[C@@H](C)O)nn4)c(OC)c3)[C@H](O)[C@H](C)O2)Oc2ccc(cc2Cl)[C@H]1O`, the MIC was 12 µM (broth microdilution; ATCC 17978, cation-adjusted Mueller-Hinton broth).
`CC[C@H](C)[C@H](NC(=O)[C@@H](CCCNC(=N)N)NC(=O)[C@H](CCCNC(=N)N)NC(=O)[C@@H]1CCCN1C(=O)[C@@H]1CCCN1C(=O)[C@H](CCCNC(=N)N)NC(=O)[C@@H]1CCCN1C(=O)[C@H](CCCNC(=N)N)NC(=O)[C@@H]1CCCN1C(=O)[C@H](CC(C)C)NC(=O)[C@H](Cc1ccc(O)cc1)NC(=O)[C@@H]1CCCN1C(=O)[C@H](Cc1ccccc1)NC(=O)[C@H](CCCCN)NC(=O)[C@H](CC(=O)O)NC(=O)[C@@H](N)C(C)C)C(=O)N[C@@H](Cc1ccc(O)cc1)C(=O)N[C@@H](CC(N)=O)C(=O)N[C@H](CCCNC(=N)N)C(N)=O` gave an MIC of 128 µg/mL (broth microdilution; DSM 1117; 18 h, 37 °C, 25% MHB2).
`C#CCNC(=O)[C@H]1NC(=O)[C@H]2NC(=O)[C@H](NC(=O)[C@@H]3NC(=O)[C@H](CC(N)=O)NC(=O)[C@H](NC(=O)[C@@H](CC(C)C)NC)[C@H](O)c4ccc(c(Cl)c4)Oc4cc3cc(c4O[C@@H]3O[C@H](CO)[C@@H](O)[C@H](O)[C@H]3O[C@H]3C[C@](C)(N)[C@H](O)[C@H](C)O3)Oc3ccc(cc3Cl)[C@H]2O)c2ccc(O)c(c2)-c2c(O)cc(O)cc21` has an MIC of over 128 µg/mL (broth microdilution; ATCC 10145, cation-adjusted Mueller-Hinton broth; 18 to 20 h, 37 °C, 0.002% polysorbate 80).
`N=C(N)NCCC[C@@H]1NC(=O)[C@H](CCCNC(=N)N)NC(=O)[C@H](CCCNC(=N)N)NC(=O)[C@@H](CCCNC(=N)N)NC(=O)[C@H](Cc2ccc3ccccc3c2)NC(=O)[C@H](Cc2ccc3ccccc3c2)NC(=O)[C@H](Cc2ccc3ccccc3c2)NC1=O` gave an MIC of 16 µg/mL (1188712, multidrug-resistant).
The MIC of `CC[C@H](C)[C@H](NC(=O)[C@@H](CCCNC(=N)N)NC(=O)[C@H](CCCNC(=N)N)NC(=O)[C@@H]1CCCN1C(=O)[C@@H]1CCCN1C(=O)[C@H](CCCNC(=N)N)NC(=O)[C@@H]1CCCN1C(=O)[C@H](CCCNC(=N)N)NC(=O)[C@@H]1CCCN1C(=O)[C@H](CC(C)C)NC(=O)[C@H](Cc1ccc(O)cc1)NC(=O)[C@H](CCCNC(=N)N)NC(=O)[C@@H]1CCCN1C(=O)[C@H](CCCCN)NC(=O)[C@H](CC(=O)O)NC(=O)[C@@H](N)C(C)C)C(=O)N[C@@H](Cc1ccc(O)cc1)C(=O)N[C@@H](CC(N)=O)C(=O)N[C@H](CCCNC(=N)N)C(N)=O` is reported as 64 µg/mL (broth microdilution; DSM 1117; 18 h, 37 °C, 25% MHB2).
`CC[C@H](C)[C@H](NC(=O)CN)C(=O)NCC(=O)N[C@@H](C)C(=O)N[C@H](C(=O)N[C@@H](CC(C)C)C(=O)N[C@@H](CCCCN)C(=O)N[C@H](C(=O)N[C@@H](CC(C)C)C(=O)N[C@H](C(=O)N[C@H](C(=O)NCC(=O)N[C@@H](CC(C)C)C(=O)N1CCC[C@H]1C(=O)N[C@@H](C)C(=O)N[C@@H](CC(C)C)C(=O)N[C@H](C(=O)N[C@@H](CO)C(=O)N[C@@H](Cc1c[nH]c2ccccc12)C(=O)N[C@H](C(=O)N[C@@H](CCCCN)C(=O)N[C@@H](CCCNC(=N)N)C(=O)N[C@@H](CCCCN)C(=O)N[C@@H](CCCNC(=N)N)C(=O)N[C@@H](CCC(N)=O)C(=O)N[C@@H](CCC(N)=O)C(N)=O)[C@@H](C)CC)[C@@H](C)CC)[C@@H](C)O)[C@@H](C)O)C(C)C)C(C)C` has an MIC of 2 µM (broth microdilution; 4007 resistant; 18 h, 37 °C).
`CC(C)C[C@@H]1NC(=O)[C@H](CCCCN)NC(=O)CNC(=O)[C@H]2CCCN2C(=O)[C@H](CCCCN)NC(=O)[C@H](CC(C)C)NC(=O)[C@H](CCCCN)NC(=O)[C@H](CC(C)C)NC(=O)[C@H](CCCCN)NC(=O)C(N)CCC=CCCCC(C(N)=O)NC(=O)[C@H](CCCCN)NC(=O)[C@H](CC(C)C)NC(=O)[C@H](CCCCN)NC1=O` (stereo partly shown) gave an MIC of 8 µM (broth microdilution; ATCC 9027, Mueller-Hinton broth; 18 h, 37 °C).
`CN[C@H](CC(C)C)C(=O)N[C@H]1C(=O)N[C@@H](CC(N)=O)C(=O)N[C@H]2C(=O)N[C@H]3C(=O)N[C@H](C(=O)N[C@H](C(=O)NCc4cn(CC(=O)N[C@H](C(=O)N[C@@H](CCN)C(=O)N[C@H]5CCNC(=O)[C@H]([C@@H](C)O)NC(=O)[C@H](CCN)NC(=O)[C@H](CCN)NC(=O)[C@H](CC(C)C)NC(=O)[C@@H](CC(C)C)NC(=O)[C@H](CCN)NC5=O)[C@@H](C)O)nn4)c4cc(O)cc(O)c4-c4cc3ccc4O)[C@H](O)c3ccc(c(Cl)c3)Oc3cc2cc(c3O[C@@H]2O[C@H](CO)[C@@H](O)[C@H](O)[C@H]2O[C@H]2C[C@](C)(N)[C@H](O)[C@H](C)O2)Oc2ccc(cc2Cl)[C@H]1O` has an MIC of 51 µM (broth microdilution; ATCC 17978, cation-adjusted Mueller-Hinton broth).
`CC[C@H](C)[C@H](NC(=O)[C@H](CCCCN)NC(=O)[C@H](Cc1c[nH]c2ccccc12)NC(=O)[C@H](Cc1c[nH]c2ccccc12)NC(=O)[C@H](CCCCN)NC(=O)[C@H](CCCCN)NC(=O)[C@H](CCCCN)NC(=O)[C@H](Cc1c[nH]c2ccccc12)NC(=O)[C@H](CCCCN)NC(=O)[C@H](CCCCN)NC(=O)[C@H](Cc1c[nH]c2ccccc12)NC(=O)[C@H](CCCCN)NC(=O)[C@H](CCCCN)NC(=O)[C@@H](NC(=O)[C@@H](NC(=O)[C@H](CCCCN)NC(=O)[C@@H](N)CCCNC(=N)N)[C@@H](C)CC)[C@@H](C)CC)C(=O)N[C@@H](Cc1c[nH]c2ccccc12)C(=O)N[C@@H](Cc1c[nH]c2ccccc12)C(=O)N[C@@H](CCCCN)C(N)=O` has an MIC of 2 µg/mL (broth microdilution; 01).

Repeated from above:
`N=C(N)NCCC[C@@H]1NC(=O)[C@H](CCCNC(=N)N)NC(=O)[C@H](CCCNC(=N)N)NC(=O)[C@@H](CCCNC(=N)N)NC(=O)[C@H](Cc2ccc3ccccc3c2)NC(=O)[C@H](Cc2ccc3ccccc3c2)NC(=O)[C@H](Cc2ccc3ccccc3c2)NC1=O` gave an MIC of 16 µg/mL (1188712, multidrug-resistant).
